Experimental data pooled from the literature.
Protocols differ between the studies behind these lines. Numbers after ± are the reported error.

COc1cccc(OC)c1-c1cc(C(=O)NC2(C(=O)O)C3CC4CC(C3)CC2C4)nn1-c1ccc(C(=O)N(C)CCOCCOCCN(C)C(=O)[C@H](CCCCNC(=O)[C@H](CC(C)C)NC(=O)C2OC2C(=O)O)NC(=O)CN2CCN(CC(=O)[O-])CCN(CC(=O)[O-])CCN(CC(=O)[O-])CC2)cc1C(C)C.[177Lu+3] (mixture of isomers)
tissue uptake (mouse HT-29 xenograft, small intestine; 4 h post injection, biodistribution): 0.68 %ID/g

N#C[C@@H]1CC(F)(F)CN1C(=O)CNC(=O)c1ccnc2c(NC(=O)[C@H](CCCCNC(=O)CCOCCOCCOCCOCCOCCOCCNC(=O)CN3CCN(CC(=O)[O-])CCN(CC(=O)[O-])CCN(CC(=O)[O-])CC3)NC(=O)CCCc3ccc(I)cc3)cccc12.[177Lu+3]
tissue uptake (mouse, U-87 MG tumour xenograft, spleen; 48 h): 0.6 ± 0.26 %ID/g

COc1cccc(OC)c1-c1cc(C(=O)NC2(C(=O)O)C3CC4CC(C3)CC2C4)nn1-c1ccc(C(=O)NCCNC(=O)[C@H](CCCCNC(=O)[C@H](CC(C)C)NC(=O)C2OC2C(=O)O)NC(=O)CN2CCN(CC(=O)[O-])CCN(CC(=O)[O-])CCN(CC(=O)[O-])CC2)cc1C(C)C.[177Lu+3] (mixture of isomers)
tissue uptake (mouse, HT-29 xenograft, lung; 72 h post injection): 0.41 %ID/g

CCCC[C@H](NC(=O)CNC(=O)CNC(=O)[C@H](CCCCNC(=O)[C@H](CC(=O)O)NC(=O)C(C)c1ccc(CC(C)C)cc1)NC(=O)CN1CCN(CC(=O)O)CCN(CC(=O)O)CCN(CC(=O)O)CC1)C(=O)N[C@H]1CC(=O)NCCCC[C@@H](C(N)=O)NC(=O)[C@H](Cc2c[nH]c3ccccc23)NC(=O)[C@H](CCCNC(=N)N)NC(=O)[C@@H](Cc2ccccc2)NC(=O)[C@H](Cc2c[nH]cn2)NC1=O (stereo partly drawn) [lutetium-177 labelled]
tissue uptake (C57 mouse, intestines; intravenous, 0.037 MBq, 4 h): 3.26 ± 0.16 %ID

O=C(O)CCCOc1ccc([18F])cc1-c1cc(-c2ccccc2C(F)(F)F)n(-c2ccccc2)n1
tissue uptake (mouse, blood; intravenous, dose not given, 60 min): 0.21 ± 0.06 %ID/g

CC(C)Cc1ccc(C(C)C(=O)N[C@@H](CCCCNC(=O)CCOCCOCCOCCOCCOCCOCCNC(=O)CN2CCN(CC(=O)[O-])CCN(CC(=O)[O-])CCN(CC(=O)[O-])CC2)C(=O)Nc2cccc3c(C(=O)NCC(=O)N4CC(F)(F)C[C@H]4C#N)ccnc23)cc1.[177Lu+3] (stereo partly drawn)
tissue uptake (mouse, U-87 MG tumour xenograft, spleen; 48 h): 0.37 ± 0.24 %ID/g

CCCC[C@H](NC(=O)COCCOCCNC(=O)CN1CCN(CC(=O)O)CCN(CC(=O)O)CC1)C(=O)N[C@H]1CC(=O)NCCCC[C@@H](C(N)=O)NC(=O)[C@H](Cc2c[nH]c3ccccc23)NC(=O)[C@H](CCCNC(=N)N)NC(=O)[C@@H](Cc2ccccc2)NC(=O)[C@H](Cc2c[nH]cn2)NC1=O [fluorine-18 labelled]
tissue uptake (C57 mice B16-F10 melanoma, skin; intravenous, 0.37 MBq, 1 h): 1.14 ± 0.23 %ID/g

N#C[C@@H]1CC(F)(F)CN1C(=O)CNC(=O)c1ccnc2c(NC(=O)[C@@H](N)CCCCNC(=O)CCOCCOCCOCCOCCOCCOCCNC(=O)CN3CCN(CC(=O)[O-])CCN(CC(=O)[O-])CCN(CC(=O)[O-])CC3)cccc12.[177Lu+3]
tissue uptake (mouse, U-87 MG tumour xenograft, kidneys; 1 h): 7.33 ± 0.95 %ID/g

COc1cccc(OC)c1-c1cc(C(=O)NC2(C(=O)O)C3CC4CC(C3)CC2C4)nn1-c1ccc(C(=O)N(C)CCOCCN(C)C(=O)[C@H](CCCCNC(=O)[C@H](CC(C)C)NC(=O)C2OC2C(=O)O)NC(=O)CN2CCN(CC(=O)[O-])CCN(CC(=O)[O-])CCN(CC(=O)[O-])CC2)cc1C(C)C.[177Lu+3] (mixture of isomers)
tissue uptake (mouse, HT-29 xenograft, kidney; 72 h post injection): 5.2 %ID/g

N#C[C@@H]1CC(F)(F)CN1C(=O)CNC(=O)c1ccnc2c(NC(=O)CCOCCOCCOCCOCCOCCOCCNC(=O)[C@H](CCCCNC(=O)CN3CCN(CC(=O)[O-])CCN(CC(=O)[O-])CCN(CC(=O)[O-])CC3)NC(=O)CCCc3ccc(I)cc3)cccc12.[177Lu+3]
tissue uptake (mouse, U-87 MG tumour xenograft, salivary gland; 24 h): 0.95 ± 0.23 %ID/g

O=C(NCC1OC2CCC=CCCC2O1)c1ccc([18F])nc1 (stereo not drawn)
tissue uptake (healthy female BALB/c nude mice, pancreas; intravenous, 7.4 MBq per mouse, 60 min): 0.9 ± 0.1 %ID/g

[11CH3]N1CCC(NC(=O)c2cc(-c3c(O)cc(O)cc3Oc3ccc([N+](=O)[O-])cc3)on2)CC1
tissue uptake (Wistar rat, female, healthy, kidneys; intravenous, 2 min): 14.8 ± 1.2 %ID

COc1cccc(OC)c1-c1cc(C(=O)NC2(C(=O)O)C3CC4CC(C3)CC2C4)nn1-c1ccc(C(=O)N(C)CCCN(C)C(=O)[C@H](CCCCNC(=O)[C@H](CC(C)C)NC(=O)C2OC2C(=O)O)NC(=O)CN2CCN(CC(=O)[O-])CCN(CC(=O)[O-])CCN(CC(=O)[O-])CC2)cc1C(C)C.[177Lu+3] (mixture of isomers)
tissue uptake (mouse, HT-29 xenograft, liver; 72 h post injection): 0.48 %ID/g

Cc1cc(C)n(CCN(CCN)CCCCCCNC(=O)[C@@H](N)Cc2c[nH]cn2)n1.[99Tc+].[C-]#[O+].[C-]#[O+].[C-]#[O+]
tissue uptake (BALB/c nude mice, MCF7 xenograft, kidney; intravenous, 4 h): 12.5 ± 2.28 %IA/g

[123I]c1ccc2nc(-c3ccc(-n4ccnn4)nc3)cn2c1
tissue uptake (Wistar rat, male, red marrow; intravenous, 4 MBq, 3 h): 0.047 ± 0.013 %ID/g

Some of these lines once more:
COc1cccc(OC)c1-c1cc(C(=O)NC2(C(=O)O)C3CC4CC(C3)CC2C4)nn1-c1ccc(C(=O)N(C)CCOCCN(C)C(=O)[C@H](CCCCNC(=O)[C@H](CC(C)C)NC(=O)C2OC2C(=O)O)NC(=O)CN2CCN(CC(=O)[O-])CCN(CC(=O)[O-])CCN(CC(=O)[O-])CC2)cc1C(C)C.[177Lu+3] (mixture of isomers)
tissue uptake (mouse, HT-29 xenograft, kidney; 72 h post injection): 5.2 %ID/g

N#C[C@@H]1CC(F)(F)CN1C(=O)CNC(=O)c1ccnc2c(NC(=O)CCOCCOCCOCCOCCOCCOCCNC(=O)[C@H](CCCCNC(=O)CN3CCN(CC(=O)[O-])CCN(CC(=O)[O-])CCN(CC(=O)[O-])CC3)NC(=O)CCCc3ccc(I)cc3)cccc12.[177Lu+3]
tissue uptake (mouse, U-87 MG tumour xenograft, salivary gland; 24 h): 0.95 ± 0.23 %ID/g
